Experimental data of several laboratories.
Each line is one published result; not all experiments were run side by side. Numbers after ± are the reported error.

CCC(=O)Nc1cc(Nc2cc(NC3CC3)n3ncc(C#N)c3n2)ccc1N(C)CCNC
IC50 (murine hepatitis virus; viral replication, nanoluciferase reporter; DBT; 10 h): 0.0631 µM

O=P(O)(O)Oc1c2c(c(OP(=O)(O)O)c3c1C1CC3c3cc4c(cc31)C1CC4c3ccccc31)C1CC2c2cc3c(cc21)C1CC3c2ccccc21
IC50 (human respiratory syncytial virus; viral infection, GFP reporter, flow cytometry; A549; virus pretreated 30 min): 61.5 µM

CC(=O)N[C@H](C(=O)N[C@@H](CCCCNC(=O)CCC(=O)OC[C@@H]1O[C@H](n2ccc(N)nc2=O)CS1)C(=O)N[C@H](C(=O)N[C@@H](CCCCNC(=O)CCC(=O)OC[C@@H]1O[C@H](n2ccc(N)nc2=O)CS1)C(=O)N[C@H](C(=O)N[C@@H](CCCCNC(=O)CCC(=O)OC[C@@H]1O[C@H](n2ccc(N)nc2=O)CS1)C(=O)N[C@@H](CCC(=O)O)C(=O)N[C@@H](CCC(=O)O)C(N)=O)C(C)C)C(C)C)C(C)C
IC50 (hepatitis B virus; HBV DNA release, qPCR; HepAD38, culture supernatant): 0.12 µM

CC[C@H](C)[C@H](NC(=O)[C@H](CC(C)C)NC(=O)CNC(=O)[C@H](Cc1c[nH]cn1)NC(=O)[C@@H](NC(=O)[C@H](Cc1ccccc1)NC(=O)[C@H](CC(N)=O)NC(=O)[C@H](Cc1c[nH]c2ccccc12)NC(=O)[C@@H](NC(=O)[C@H](Cc1c[nH]cn1)NC(=O)CNC(=O)[C@H](Cc1c[nH]c2ccccc12)NC(=O)[C@@H](N)CC(C)C)[C@@H](C)CC)C(C)C)C(N)=O
IC50 (Herpes simplex virus 1; viral entry, plaque reduction; Vero, F; 37 °C): 8.63 µg/mL

CC(=O)Nc1cc(Nc2cc(NC3CC3)n3ncc(C#N)c3n2)ccc1N1CCOCC1
IC50 (murine hepatitis virus; viral replication, nanoluciferase reporter; DBT; 10 h): 0.0794 µM

CSC[C@H]1CN(Cc2c[nH]c3c(N)ncnc23)C[C@@H]1O
IC50 (Campylobacter jejuni; cell growth; 144 h): 3.5 ± 0.7 µM

CC[C@H](C)[C@H](NC(=O)[C@H](CC(C)C)NC(=O)[C@H](Cc1c[nH]cn1)NC(=O)[C@H](Cc1c[nH]cn1)NC(=O)[C@@H](NC(=O)[C@H](Cc1ccccc1)NC(=O)[C@H](CC(N)=O)NC(=O)[C@H](Cc1c[nH]c2ccccc12)NC(=O)[C@@H](NC(=O)[C@H](Cc1c[nH]cn1)NC(=O)[C@H](Cc1c[nH]cn1)NC(=O)[C@H](Cc1c[nH]c2ccccc12)NC(=O)[C@@H](N)CC(C)C)[C@@H](C)CC)C(C)C)C(N)=O
IC50 (Herpes simplex virus 1; viral entry, plaque reduction; Vero, F; 37 °C): 4.37 µg/mL

CC[C@H](C)[C@H](NC(=O)[C@H](Cc1ccccc1)NC(=O)[C@H](CC(=O)O)NC(=O)[C@H](CCCCN)NC(=O)[C@H](C)NC(=O)[C@H](CCCCN)NC(=O)[C@H](CC(N)=O)NC(=O)[C@H](CC(C)C)NC(=O)[C@H](Cc1c[nH]c2ccccc12)NC(=O)[C@H](CCC(=O)O)NC(=O)[C@H](CCCCN)NC(=O)[C@@H](NC(=O)CNC(=O)[C@H](C)N)[C@@H](C)O)C(=O)N[C@@H](CCCCN)C(=O)N[C@@H](CCC(=O)O)C(=O)N[C@@H](CCCCN)C(=O)NCC(=O)N1CCC[C@H]1C(=O)NCC(=O)N[C@@H](CCSC)C(=O)N[C@@H](CC(C)C)C(=O)N[C@@H](CO)C(=O)N[C@@H](C)C(=O)N[C@@H](C)C(=O)N[C@@H](C)C(=O)N[C@@H](CC(N)=O)C(=O)N[C@@H](C)C(=O)N[C@@H](C)C(=O)N[C@@H](CC(C)C)C(=O)N[C@@H](CC(N)=O)C(=O)O
IC50 (Haemonchus contortus; larval development; Kirby isolate; 6 days, 26 °C): 52.1 ± 11.8 µM

O=C(C1CCN(c2nnnn2-c2ccccc2)CC1)N1CCCc2ccccc21
IC50 (Plasmodium falciparum; Dd2, Pfcarl mutant): 0.718 µM

CCNCCN(C)c1ccc(Nc2cc(NC3CC3)n3ncc(C#N)c3n2)cc1NC(=O)CC
IC50 (murine hepatitis virus; viral replication, nanoluciferase reporter; DBT; 10 h): 0.251 µM

COc1ccc(C[C@H](NC(=O)[C@H](C)NC(=O)CN2CCOCC2)C(=O)N[C@@H](Cc2ccccc2)C(=O)C2(C)CO2)cc1 (stereo in doubt)
IC50 (Babesia divergens; parasite growth; bovine erythrocyte culture; 48 h, starting parasitemia 2%): 0.1 µM

CCc1ccc(COP(=O)(O)Oc2c3c(c(OP(=O)(O)OCc4ccc(CC)cc4)c4c2C2CC4c4cc5c(cc42)C2CC5c4ccccc42)C2CC3c3cc4c(cc32)C2CC4c3ccccc32)cc1
IC50 (human respiratory syncytial virus; viral infection, GFP reporter, flow cytometry; A549; virus pretreated 30 min): 6.1 µM

CC(=O)Nc1cc(Nc2cc(NC3CC3)n3ncc(C#N)c3n2)ccc1N(C)Cc1ccccc1
IC50 (murine hepatitis virus; viral replication, nanoluciferase reporter; DBT; 10 h): 6.31 µM

CC(=O)CCC1C(=O)NC(C(C)C)C(=O)NC(Cc2cc(O)cc(F)c2)C(=O)N2CCCC(N2)C(=O)OC(C(C)=CC=CC(=O)N2CCCCO2)CC=CC=CC(O)C(C)C1O (stereo not drawn)
IC50 (hepatitis B virus; viral replication, item: HBsAg; HBV stable cell line): 0.52 µM

CC[C@H](C)[C@H](NC(=O)[C@H](Cc1ccccc1)NC(=O)[C@H](CC(=O)O)NC(=O)[C@H](CCCCN)NC(=O)[C@H](C)NC(=O)[C@H](CCCCN)NC(=O)[C@H](CC(N)=O)NC(=O)[C@H](CC(C)C)NC(=O)[C@H](Cc1c[nH]c2ccccc12)NC(=O)[C@H](CCC(=O)O)NC(=O)[C@H](CCCCN)NC(=O)[C@@H](NC(=O)CNC(=O)[C@H](C)N)[C@@H](C)O)C(=O)N[C@@H](CCCCN)C(=O)N[C@@H](CCC(=O)O)C(=O)N[C@@H](CCCCN)C(=O)NCC(=O)N[C@@H](CC(C)C)C(=O)NCC(=O)N[C@@H](CCSC)C(=O)N[C@@H](CC(C)C)C(=O)N[C@@H](CCCNC(=N)N)C(=O)N[C@@H](C)C(=O)N[C@@H](C)C(=O)N[C@@H](C)C(=O)N[C@@H](CC(N)=O)C(=O)N[C@@H](C)C(=O)N[C@@H](C)C(=O)N[C@@H](CC(C)C)C(=O)N[C@@H](CC(N)=O)C(=O)O
IC50 (Haemonchus contortus; larval development; Kirby isolate; 6 days, 26 °C): 23.5 ± 8.3 µM

CC(=O)OC[C@H]1O[C@@H](NC(=O)NC(=O)[C@@H](C)Cc2ccc(C(C)C)cc2)[C@H](OC(C)=O)[C@@H](OC(C)=O)[C@@H]1OC(C)=O
IC50 (Sindbis virus; cytopathic effect; Vero): 58 µM

CC(=O)CCC1C(=O)NC(C(C)C)C(=O)NC(Cc2cccc(O)c2)C(=O)N2CCCC(N2)C(=O)OC(C(C)=CC=CC(=O)N2CCCCO2)CC=CC=CC(O)C(C)C1O (stereo not drawn)
IC50 (hepatitis B virus; viral replication, item: HBeAg; HBV stable cell line): 0.28 µM

C#CCCCOP(=O)(O)Oc1c2c(c(OP(=O)(O)OCCCC#C)c3c1C1CC3c3cc4c(cc31)C1CC4c3ccccc31)C1CC2c2cc3c(cc21)C1CC3c2ccccc21
IC50 (human respiratory syncytial virus; viral infection, GFP reporter, flow cytometry; A549; virus pretreated 30 min): 18.9 µM

CC[C@H](C)[C@H](NC(=O)[C@H](Cc1ccccc1)NC(=O)[C@H](CC(=O)O)NC(=O)[C@H](CCCCN)NC(=O)[C@H](C)NC(=O)[C@H](CCCCN)NC(=O)[C@H](CC(N)=O)NC(=O)[C@H](CC(C)C)NC(=O)[C@H](Cc1c[nH]c2ccccc12)NC(=O)[C@H](CCC(=O)O)NC(=O)[C@H](CCCCN)NC(=O)[C@H](Cc1c[nH]c2ccccc12)NC(=O)CNC(=O)[C@H](C)N)C(=O)N[C@@H](CCCCN)C(=O)N[C@@H](CCC(=O)O)C(=O)N[C@@H](CCCCN)C(=O)NCC(=O)N[C@@H](CC(C)C)C(=O)NCC(=O)N[C@@H](CCSC)C(=O)N[C@@H](CC(C)C)C(=O)N[C@@H](CO)C(=O)N[C@@H](C)C(=O)N[C@@H](C)C(=O)N[C@@H](C)C(=O)N[C@@H](CC(N)=O)C(=O)N[C@@H](C)C(=O)N[C@@H](C)C(=O)N[C@@H](CC(C)C)C(=O)N[C@@H](CC(N)=O)C(=O)O
IC50 (Haemonchus contortus; larval development; Kirby isolate; 6 days, 26 °C): 16.6 ± 2.5 µM

CC[C@H](C)[C@H](NC(=O)[C@H](CC(C)C)NC(=O)CNC(=O)[C@H](Cc1c[nH]cn1)NC(=O)[C@@H](NC(=O)[C@H](Cc1ccccc1)NC(=O)[C@H](CC(N)=O)NC(=O)[C@H](Cc1c[nH]c2ccccc12)NC(=O)[C@@H](NC(=O)[C@H](Cc1c[nH]cn1)NC(=O)[C@H](Cc1c[nH]cn1)NC(=O)[C@H](Cc1c[nH]c2ccccc12)NC(=O)[C@@H](N)CC(C)C)[C@@H](C)CC)C(C)C)C(N)=O
IC50 (Herpes simplex virus 1; virus inactivation, plaque reduction; Vero, F; 37 °C): 1.01 µg/mL

O=P(O)(OCc1ccc(-c2ccccc2)cc1)Oc1c2c(c(OP(=O)(O)OCc3ccc(-c4ccccc4)cc3)c3c1C1CC3c3cc4c(cc31)C1CC4c3ccccc31)C1CC2c2cc3c(cc21)C1CC3c2ccccc21
IC50 (human respiratory syncytial virus; viral infection, GFP reporter, flow cytometry; A549; virus pretreated 30 min): 9.7 µM

A few entries again:
CC[C@H](C)[C@H](NC(=O)[C@H](Cc1ccccc1)NC(=O)[C@H](CC(=O)O)NC(=O)[C@H](CCCCN)NC(=O)[C@H](C)NC(=O)[C@H](CCCCN)NC(=O)[C@H](CC(N)=O)NC(=O)[C@H](CC(C)C)NC(=O)[C@H](Cc1c[nH]c2ccccc12)NC(=O)[C@H](CCC(=O)O)NC(=O)[C@H](CCCCN)NC(=O)[C@H](Cc1c[nH]c2ccccc12)NC(=O)CNC(=O)[C@H](C)N)C(=O)N[C@@H](CCCCN)C(=O)N[C@@H](CCC(=O)O)C(=O)N[C@@H](CCCCN)C(=O)NCC(=O)N[C@@H](CC(C)C)C(=O)NCC(=O)N[C@@H](CCSC)C(=O)N[C@@H](CC(C)C)C(=O)N[C@@H](CO)C(=O)N[C@@H](C)C(=O)N[C@@H](C)C(=O)N[C@@H](C)C(=O)N[C@@H](CC(N)=O)C(=O)N[C@@H](C)C(=O)N[C@@H](C)C(=O)N[C@@H](CC(C)C)C(=O)N[C@@H](CC(N)=O)C(=O)O
IC50 (Haemonchus contortus; larval development; Kirby isolate; 6 days, 26 °C): 16.6 ± 2.5 µM

CCC(=O)Nc1cc(Nc2cc(NC3CC3)n3ncc(C#N)c3n2)ccc1N(C)CCNC
IC50 (murine hepatitis virus; viral replication, nanoluciferase reporter; DBT; 10 h): 0.0631 µM

CC(=O)OC[C@H]1O[C@@H](NC(=O)NC(=O)[C@@H](C)Cc2ccc(C(C)C)cc2)[C@H](OC(C)=O)[C@@H](OC(C)=O)[C@@H]1OC(C)=O
IC50 (Sindbis virus; cytopathic effect; Vero): 58 µM
